Measured values gathered from unrelated publications.
Parts stem from different laboratories: compare values within a part only. Positions count from the first letter of the parent shown.

Series 1
Target: Histone acetyltransferase KAT6A, both winged helices, GST fusion (KAT6A, Homo sapiens, UniProt Q92794, residues 1-181)
Method: protein binding microarray
Molecule type: double-stranded DNA, one strand shown
Matrix: in vitro
Concentration: not given
Notes: 8-mer, flanks averaged, mean of 2 arrays, mostly near background
Baseline: not given
Direction: higher = stronger binding
Residues (chain): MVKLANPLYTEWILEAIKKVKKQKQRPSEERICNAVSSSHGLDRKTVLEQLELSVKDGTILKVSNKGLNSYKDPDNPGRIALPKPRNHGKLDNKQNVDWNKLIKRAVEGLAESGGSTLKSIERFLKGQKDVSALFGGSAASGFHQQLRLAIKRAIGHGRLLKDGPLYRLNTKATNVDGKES
`CAACTGTC` has an E-score of -0.0614.
`GTGGCAGA` has an E-score of -0.161.
`AGGCCTTA` gave an E-score of -0.0909.
`CCTTGTAC` has an E-score of -0.108.
For `GGTAGGCA`, the E-score was -0.0512.
`CCTCCCTC` has an E-score of -0.201.
`ACCATCTC` has an E-score of -0.115.
`AGACTGCA` has an E-score of -0.167.
`AATTTAGG` gave an E-score of -0.182.
For `ACATAGAG`, the E-score was -0.157.
`GATGACAC` has an E-score of -0.0281.
The E-score of `GCTAAATA` is reported as -0.00211.
With `AGTATTTA` the E-score was -0.147.
For `GGGAGGAA`, the E-score was -0.0385.
`AAAAGCGC` has an E-score of 0.301.
The E-score of `ACTTGCGC` is reported as 0.3.

Series 2
Target: CCNB3, cyclin fold, Cln2 fusion (human)
Method: yeast growth competition, sequencing
Matrix: yeast
Notes: weak parent motif
Baseline: not given
Direction: higher = stronger binding
Starting sequence: SAMHD1 docking peptide (human); ASKSRVQLFKDDP
Under “normalised enrichment score”, `ASKSRKQLFKDDP [V6K]` is recorded as 0.115.
For `ASKSRVQLFKDEP [D12E]`, “normalised enrichment score” read 0.189.
`ASKSRPQLFKDDP [V6P]`: “normalised enrichment score” -0.597.
Under “normalised enrichment score”, `ASKSRVQLFHDDP [K10H]` is recorded as -0.0458.
Under “normalised enrichment score”, `ASKSRVQLDKDDP [F9D]` is recorded as 0.1.
For `ASKSMVQLFKDDP [R5M]`, “normalised enrichment score” read -0.162.
`ASPSRVQLFKDDP [K3P]` — result for “normalised enrichment score”: -0.117.
For `ASTSRVQLFKDDP [K3T]`, “normalised enrichment score” read -0.371.
For `ASKSRVQLHKDDP [F9H]`, “normalised enrichment score” read 0.0177.
`ASKSRVQLFCDDP [K10C]`: “normalised enrichment score” 0.0688.
`ASKSAVQLFKDDP [R5A]` — result for “normalised enrichment score”: 0.0299.
`ASKSRVQLGKDDP [F9G]`: “normalised enrichment score” 0.0416.
`ASKSRVQLFWDDP [K10W]`: “normalised enrichment score” 0.249.
For `ASKSRVQLFKTDP [D11T]`, “normalised enrichment score” read 0.492.
`ASKSRVNLFKDDP [Q7N]` — result for “normalised enrichment score”: -0.0755.
`ASKVRVQLFKDDP [S4V]`: “normalised enrichment score” 0.86.
`ASKSRVQLFTDDP [K10T]` — result for “normalised enrichment score”: 0.0125.
For `ASKSRVQLFPDDP [K10P]`, “normalised enrichment score” read -0.3.
Under “normalised enrichment score”, `ASKSRVQLFKDKP [D12K]` is recorded as -0.17.
`ASKSRVQLFKMDP [D11M]` — result for “normalised enrichment score”: 0.289.
Under “normalised enrichment score”, `ASKERVQLFKDDP [S4E]` is recorded as 0.0366.
Under “normalised enrichment score”, `ASKSRVQLFQDDP [K10Q]` is recorded as -0.187.
For `ASKSRVQLPKDDP [F9P]`, “normalised enrichment score” read -0.0349.
`ASKSRVQLFKYDP [D11Y]`: “normalised enrichment score” 0.0964.
For `ASKSRMQLFKDDP [V6M]`, “normalised enrichment score” read 0.092.

Series 3
Target: ABI1, truncated, D143A, DHFR fusion (Arabidopsis thaliana)
Method: DHFR PCA, deep sequencing
Matrix: yeast
Notes: methotrexate growth selection, single substitutions
Added: (+)-ABA 200 µM
Baseline: wild-type fitted maximum
Direction: higher = stronger binding
Starting sequence: PYL1, truncated, DHFR fusion (Arabidopsis thaliana); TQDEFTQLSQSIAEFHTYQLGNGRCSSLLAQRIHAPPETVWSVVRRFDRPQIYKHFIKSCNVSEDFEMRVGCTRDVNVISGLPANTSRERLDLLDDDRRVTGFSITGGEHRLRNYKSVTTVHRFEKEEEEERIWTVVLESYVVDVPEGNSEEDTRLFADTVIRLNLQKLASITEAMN
`G148I`: “relative binding score” 43.4%.
Under “relative binding score”, `E129A` is recorded as 108%.
`D75L` — result for “relative binding score”: 105%.
Under “relative binding score”, `Y18V` is recorded as 88.5%.
`S27P` — result for “relative binding score”: -18.7%.
`P36K` — result for “relative binding score”: 91.8%.
Under “relative binding score”, `S150M` is recorded as 64%.
`I105W`: “relative binding score” -6.81%.
`G148A`: “relative binding score” 86.2%.
`D75C` — result for “relative binding score”: 102%.
`E152S`: “relative binding score” 95%.
`L28N` — result for “relative binding score”: 40.7%.
Under “relative binding score”, `T73L` is recorded as 102%.
For `L156G`, “relative binding score” read 87.8%.
Under “relative binding score”, `C60M` is recorded as 46.6%.
`L164G` — result for “relative binding score”: 83.9%.
Under “relative binding score”, `R74A` is recorded as 11.6%.

Series 4
Target: UBE2E1 UBC core domain (UniProt P51965)
Chain of UniProt P51965 (whole entry, looked up): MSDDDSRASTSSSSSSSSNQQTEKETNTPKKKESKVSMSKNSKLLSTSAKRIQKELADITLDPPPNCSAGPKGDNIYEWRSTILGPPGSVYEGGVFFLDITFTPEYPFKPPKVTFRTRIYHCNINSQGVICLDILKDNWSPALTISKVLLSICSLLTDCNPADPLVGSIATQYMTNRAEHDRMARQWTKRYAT
Method: yeast two-hybrid
Matrix: yeast
Notes: mostly zero background
Baseline: not given
Direction: higher = stronger interaction
B1: DTX1 RING domain (UniProt Q86Y01); chain QKVKNPPDEDCTICMERLVTASGYEGVLRHKGVRPELVGRLGRCGHMYHLLCLVAMYSNGNKDGSLQCPTCKAIYGEKTGTQ
B2: TRIM48 RING domain (UniProt Q8IWZ4); chain ISQVFQRELTCPICMNYFIDPVTIDCGHSFCRPCFYLNWQDIPILTQCFECIKTIQQRNLKT
B3: Ltn1 RING domain (UniProt Q6A009); chain VDKRFEGVEDCMICFSVIHGFNYSLPKKACRTCKKKFHSACLYKWFTSSNKSTCPLCRETFF
B4: RNF135 RING domain (UniProt Q8IUD6); chain PVWLAEDDLGCIICQGLLDWPATLPCGHSFCRHCLEALWGARDARRWACPTCRQGAAQQPHLR
B5: RNF24 RING domain (UniProt Q9Y225); chain KVKELNLHELCAVCLEDFKPRDELGICPCKHAFHRKCLIKWLEVRKVCPLCNMPVLQLAQLH
B6: ZNRF3 RING domain (UniProt Q9ULT6); chain DTLSSSSTSDCAICLEKYIDGEELRVIPCTHRFHRKCVDPWLLQHHTCPHCRHNIIEQKGNP
For `B1 (DTX1 RING domain)`, “lacZ reporter activity” read 7440.
`MDDQGCPRCKTTKYRNPSLKLMVNVCGHTLCESCVDLLFVRGAGNCPECGTPLRKSNFRV (MNAT1 RING domain (UniProt P51948))`: “lacZ reporter activity” 0.
For `B2 (TRIM48 RING domain)`, “lacZ reporter activity” read 0.
Under “lacZ reporter activity”, `B3 (Ltn1 RING domain)` is recorded as 0.
`KEQLEKHNDICAICYQDMKSAVITPCSHFFHAGCLKKWLYVQETCPLCHCHLKNSSQLP (RNF145 RING domain (UniProt Q96MT1))` — result for “lacZ reporter activity”: 0.
Under “lacZ reporter activity”, `B4 (RNF135 RING domain)` is recorded as 0.
For `B5 (RNF24 RING domain)`, “lacZ reporter activity” read 0.
For `NTAPSLTVPECAICLQTCVHPVSLPCKHVFCYLCVKGASWLGKRCALCRQEIPEDFLDK (RNF146 RING domain (UniProt Q9NTX7))`, “lacZ reporter activity” read 0.
`KLWDINAHITCRLCSGYLIDATTVTECLHTFCRSCLVKYLEENNTCPTCRIVIHQSHPLQ (PCGF3 RING domain (UniProt Q3KNV8))` — result for “lacZ reporter activity”: 0.
`ALDRLEKLLRCSRCTNILREPVCLGGCEHIFCSNCVSDCIGTGCPVCYTPAWIQDLKI (BARD1 RING domain (UniProt Q99728))` — result for “lacZ reporter activity”: 0.
For `B6 (ZNRF3 RING domain)`, “lacZ reporter activity” read 0.
Under “lacZ reporter activity”, `QLRRLQEERTCKVCLDRAVSIVFVPCGHLVCAECAPGLQLCPICRAPVRSRVRTF (BIRC7 RING domain (UniProt Q96CA5))` is recorded as 0.

Repeated from above (series 2):
`ASKSRVQLFCDDP [K10C]`: “normalised enrichment score” 0.0688.
`ASKSAVQLFKDDP [R5A]` — result for “normalised enrichment score”: 0.0299.
`ASKSRVQLGKDDP [F9G]`: “normalised enrichment score” 0.0416.
`ASKSRVQLFWDDP [K10W]`: “normalised enrichment score” 0.249.
